{"data": "Results pooled from the literature", "note": "Every numbered part comes from another study and shows a few of its results, in no order.", "chain of UniProt O14976 (whole entry, looked up)": "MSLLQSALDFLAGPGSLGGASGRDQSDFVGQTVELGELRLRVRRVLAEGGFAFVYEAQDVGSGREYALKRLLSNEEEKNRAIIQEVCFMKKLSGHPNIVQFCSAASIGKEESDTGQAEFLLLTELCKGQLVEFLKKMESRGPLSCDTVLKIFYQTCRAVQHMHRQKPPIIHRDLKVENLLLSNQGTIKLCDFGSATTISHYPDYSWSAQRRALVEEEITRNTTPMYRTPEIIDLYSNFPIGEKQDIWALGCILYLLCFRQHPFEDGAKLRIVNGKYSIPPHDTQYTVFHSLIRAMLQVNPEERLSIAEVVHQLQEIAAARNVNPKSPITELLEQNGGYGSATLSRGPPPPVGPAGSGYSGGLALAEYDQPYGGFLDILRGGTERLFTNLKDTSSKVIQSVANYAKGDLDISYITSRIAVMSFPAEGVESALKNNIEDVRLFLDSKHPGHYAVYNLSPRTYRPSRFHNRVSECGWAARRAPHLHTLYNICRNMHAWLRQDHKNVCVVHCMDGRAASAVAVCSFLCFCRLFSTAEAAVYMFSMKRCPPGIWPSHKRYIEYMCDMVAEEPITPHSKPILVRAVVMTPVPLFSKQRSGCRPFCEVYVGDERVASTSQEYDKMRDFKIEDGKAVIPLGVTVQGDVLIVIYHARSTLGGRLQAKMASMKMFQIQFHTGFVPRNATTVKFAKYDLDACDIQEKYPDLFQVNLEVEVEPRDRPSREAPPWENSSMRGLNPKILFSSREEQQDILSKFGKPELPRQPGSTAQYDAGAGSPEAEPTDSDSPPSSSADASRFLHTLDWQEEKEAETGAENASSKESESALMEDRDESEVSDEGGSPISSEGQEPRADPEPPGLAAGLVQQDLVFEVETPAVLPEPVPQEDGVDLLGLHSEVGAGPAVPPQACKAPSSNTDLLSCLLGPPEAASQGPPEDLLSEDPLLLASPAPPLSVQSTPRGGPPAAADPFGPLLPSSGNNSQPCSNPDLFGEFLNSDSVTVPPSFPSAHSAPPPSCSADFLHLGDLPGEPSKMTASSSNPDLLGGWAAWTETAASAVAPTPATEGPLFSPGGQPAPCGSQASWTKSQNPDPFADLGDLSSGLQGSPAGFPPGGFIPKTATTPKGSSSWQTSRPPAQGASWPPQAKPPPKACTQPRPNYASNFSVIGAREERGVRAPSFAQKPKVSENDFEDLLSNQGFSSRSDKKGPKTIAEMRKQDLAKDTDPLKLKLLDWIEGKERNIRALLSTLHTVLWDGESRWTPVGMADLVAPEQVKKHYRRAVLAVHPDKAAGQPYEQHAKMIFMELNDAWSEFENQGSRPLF", "chain of UniProt P13945 (whole entry, looked up)": "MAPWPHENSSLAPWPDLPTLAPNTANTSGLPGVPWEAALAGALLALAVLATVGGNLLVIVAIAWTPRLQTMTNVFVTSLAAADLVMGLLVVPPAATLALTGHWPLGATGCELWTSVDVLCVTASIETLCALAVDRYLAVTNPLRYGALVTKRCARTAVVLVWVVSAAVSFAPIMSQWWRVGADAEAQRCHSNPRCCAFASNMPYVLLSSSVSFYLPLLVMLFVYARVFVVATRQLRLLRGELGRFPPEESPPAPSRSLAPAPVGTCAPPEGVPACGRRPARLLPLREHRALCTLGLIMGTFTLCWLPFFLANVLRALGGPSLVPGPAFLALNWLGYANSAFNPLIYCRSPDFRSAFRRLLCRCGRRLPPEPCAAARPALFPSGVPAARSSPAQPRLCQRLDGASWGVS", "chain of UniProt Q9BXA7 (whole entry, looked up)": "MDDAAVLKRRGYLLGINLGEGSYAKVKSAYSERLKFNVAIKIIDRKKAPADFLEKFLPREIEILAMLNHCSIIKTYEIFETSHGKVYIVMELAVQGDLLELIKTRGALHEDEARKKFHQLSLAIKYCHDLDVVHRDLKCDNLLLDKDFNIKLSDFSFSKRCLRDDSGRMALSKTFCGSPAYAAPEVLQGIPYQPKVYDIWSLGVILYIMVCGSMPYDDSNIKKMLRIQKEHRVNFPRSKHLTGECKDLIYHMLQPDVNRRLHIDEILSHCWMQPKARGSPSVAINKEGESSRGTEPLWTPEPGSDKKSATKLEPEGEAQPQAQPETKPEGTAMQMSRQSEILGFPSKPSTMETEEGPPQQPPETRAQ", "chain of UniProt P62344 (whole entry, looked up)": "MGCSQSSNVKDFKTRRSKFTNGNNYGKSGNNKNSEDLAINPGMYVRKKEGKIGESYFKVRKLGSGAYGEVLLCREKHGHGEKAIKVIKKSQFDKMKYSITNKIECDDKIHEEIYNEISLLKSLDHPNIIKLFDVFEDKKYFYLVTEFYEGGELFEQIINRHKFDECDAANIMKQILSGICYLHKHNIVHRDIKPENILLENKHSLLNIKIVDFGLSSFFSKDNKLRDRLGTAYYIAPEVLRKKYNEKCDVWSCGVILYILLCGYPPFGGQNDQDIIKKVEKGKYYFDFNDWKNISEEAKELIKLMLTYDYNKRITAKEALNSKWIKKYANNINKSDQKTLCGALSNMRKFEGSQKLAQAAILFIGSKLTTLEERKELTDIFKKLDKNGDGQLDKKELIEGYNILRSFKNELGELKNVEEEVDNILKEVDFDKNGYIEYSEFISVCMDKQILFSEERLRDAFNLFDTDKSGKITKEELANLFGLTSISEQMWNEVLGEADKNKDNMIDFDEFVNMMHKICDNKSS", "chain of UniProt P23975 (whole entry, looked up)": "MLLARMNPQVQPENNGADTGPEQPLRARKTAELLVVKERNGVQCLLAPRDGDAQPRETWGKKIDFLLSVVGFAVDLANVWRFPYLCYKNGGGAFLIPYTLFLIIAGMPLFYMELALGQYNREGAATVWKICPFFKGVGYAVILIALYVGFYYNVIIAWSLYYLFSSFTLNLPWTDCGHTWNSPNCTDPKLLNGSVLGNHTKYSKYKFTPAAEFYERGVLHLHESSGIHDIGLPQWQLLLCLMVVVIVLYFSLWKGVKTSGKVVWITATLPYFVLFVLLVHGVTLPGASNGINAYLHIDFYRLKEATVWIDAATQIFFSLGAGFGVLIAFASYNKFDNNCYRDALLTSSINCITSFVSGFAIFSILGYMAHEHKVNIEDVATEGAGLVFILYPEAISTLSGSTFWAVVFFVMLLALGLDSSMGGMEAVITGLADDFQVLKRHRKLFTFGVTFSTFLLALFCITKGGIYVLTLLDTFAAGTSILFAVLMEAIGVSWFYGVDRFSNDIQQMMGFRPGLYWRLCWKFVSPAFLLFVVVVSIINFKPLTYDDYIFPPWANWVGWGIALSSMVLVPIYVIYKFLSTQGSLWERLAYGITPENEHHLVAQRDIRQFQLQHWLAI", "chain of UniProt Q13188 (whole entry, looked up)": "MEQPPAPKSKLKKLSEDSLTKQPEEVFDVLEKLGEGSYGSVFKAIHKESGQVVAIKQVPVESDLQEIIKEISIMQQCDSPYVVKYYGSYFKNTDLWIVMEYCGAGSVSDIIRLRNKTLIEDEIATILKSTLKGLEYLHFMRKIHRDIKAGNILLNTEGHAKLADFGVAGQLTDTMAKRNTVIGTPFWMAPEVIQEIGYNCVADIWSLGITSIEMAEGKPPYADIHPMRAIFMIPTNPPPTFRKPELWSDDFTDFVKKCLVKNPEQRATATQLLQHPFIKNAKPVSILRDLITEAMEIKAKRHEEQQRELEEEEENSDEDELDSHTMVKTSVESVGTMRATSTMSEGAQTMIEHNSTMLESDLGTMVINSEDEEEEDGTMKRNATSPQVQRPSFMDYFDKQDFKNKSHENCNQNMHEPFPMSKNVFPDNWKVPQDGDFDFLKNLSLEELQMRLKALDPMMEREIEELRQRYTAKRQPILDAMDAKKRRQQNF"}
{"data": "Study 1", "Compound": "O=C1CCC(N2Cc3c(ccc4c3OCC43CCN(Cc4ccccc4)CC3)C2=O)C(=O)N1 (centres unmarked)", "target": "CRBN/Zinc finger protein Helios (Homo sapiens, UniProt Q96SW2+Q9UKS7)", "action": "degrader", "technique": "HiBiT", "cells": "HEK293", "chain of UniProt Q9UKS7 (whole entry, looked up)": "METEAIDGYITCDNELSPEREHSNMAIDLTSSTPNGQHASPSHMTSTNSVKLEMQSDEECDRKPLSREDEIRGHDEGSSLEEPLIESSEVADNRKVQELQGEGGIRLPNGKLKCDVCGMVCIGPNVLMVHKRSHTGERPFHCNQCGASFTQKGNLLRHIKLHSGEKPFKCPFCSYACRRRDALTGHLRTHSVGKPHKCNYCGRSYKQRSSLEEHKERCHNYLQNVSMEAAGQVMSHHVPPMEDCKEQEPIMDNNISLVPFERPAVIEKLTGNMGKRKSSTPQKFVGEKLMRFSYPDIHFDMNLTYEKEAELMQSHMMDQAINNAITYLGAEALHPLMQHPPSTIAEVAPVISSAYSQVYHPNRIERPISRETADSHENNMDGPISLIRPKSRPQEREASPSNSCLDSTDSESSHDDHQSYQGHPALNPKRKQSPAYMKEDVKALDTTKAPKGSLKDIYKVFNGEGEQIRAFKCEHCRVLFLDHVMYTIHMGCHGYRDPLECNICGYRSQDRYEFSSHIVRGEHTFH", "chain of UniProt Q96SW2 (whole entry, looked up)": "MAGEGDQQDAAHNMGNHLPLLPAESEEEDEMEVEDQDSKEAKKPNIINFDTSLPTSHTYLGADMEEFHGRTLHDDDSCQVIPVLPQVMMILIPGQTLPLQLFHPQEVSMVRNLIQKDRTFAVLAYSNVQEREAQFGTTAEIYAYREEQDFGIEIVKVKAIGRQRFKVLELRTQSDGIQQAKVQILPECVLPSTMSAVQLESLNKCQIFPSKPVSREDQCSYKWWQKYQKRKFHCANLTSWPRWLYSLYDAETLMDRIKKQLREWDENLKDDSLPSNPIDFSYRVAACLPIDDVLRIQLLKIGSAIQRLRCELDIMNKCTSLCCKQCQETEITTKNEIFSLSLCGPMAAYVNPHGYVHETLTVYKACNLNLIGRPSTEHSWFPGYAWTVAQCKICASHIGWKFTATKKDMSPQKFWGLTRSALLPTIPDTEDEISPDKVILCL"}
{"conditions": "10000 nM", "protein remaining": "30.4%"}
{"conditions": "1111.11 nM", "protein remaining": "54.3%"}
{"conditions": "123.5 nM", "protein remaining": "80.2%"}
{"conditions": "370.37 nM", "protein remaining": "58.7%"}
{"conditions": "4.572 nM, 6 h", "protein remaining": "120%"}
{"conditions": "1111.11 nM, 6 h", "protein remaining": "54.3%"}
{"conditions": "0.5081 nM", "protein remaining": "115%"}
{"conditions": "3333.33 nM, 6 h", "protein remaining": "35.2%"}
{"conditions": "0.1694 nM, 6 h", "protein remaining": "108%"}
{"conditions": "4.572 nM", "protein remaining": "120%"}
{"data": "Study 2", "SMILES": "COc1ccc2c(c[n+](C)c3c4cc5c(cc4ccc23)OCO5)c1OC", "read-out": "enzyme activity", "action": "inhibitor", "concentration": "0.5 µM", "relative to": "control"}
{"target": "Serine/threonine-protein kinase 3 (STK3, Homo sapiens, UniProt Q13188)", "remaining activity": "102%"}
{"target": "High affinity nerve growth factor receptor (NTRK1, Homo sapiens, UniProt P04629)", "remaining activity": "89.8%"}
{"target": "Serine/threonine-protein kinase 4 (STK4, Homo sapiens, UniProt Q13043)", "remaining activity": "98.9%"}
{"target": "Aurora kinase B (AURKB, Homo sapiens, UniProt Q96GD4)", "remaining activity": "99.2%"}
{"target": "Mitogen-activated protein kinase kinase kinase 7 (MAP3K7, Homo sapiens, UniProt O43318)", "remaining activity": "100%"}
{"target": "Serine/threonine-protein kinase haspin (HASPIN, Homo sapiens, UniProt Q8TF76)", "remaining activity": "98.8%"}
{"target": "Testis-specific serine/threonine-protein kinase 1 (TSSK1B, Homo sapiens, UniProt Q9BXA7)", "remaining activity": "97.3%"}
{"target": "Tyrosine-protein kinase SYK (SYK, Homo sapiens, UniProt P43405)", "remaining activity": "98.8%"}
{"data": "Single results of other studies"}
{"Structure (SMILES)": "CNC(=O)Nc1ccc2c(c1)CC[C@]21OC(=O)N(CC(=O)N(Cc2ccc(F)cc2)[C@@H](C)C(F)(F)F)C1=O", "target": "Sodium-dependent noradrenaline transporter (SLC6A2, Homo sapiens, UniProt P23975)", "test": "ligand displacement", "conditions": "10 µM", "measurement": "inhibition", "result": "2.78%"}
{"Structure (SMILES)": "C[C@]12CC[C@@H](O)C[C@H]1CC[C@@H]1[C@@H]2CC[C@]2(C)C(=O)CC[C@@H]12", "target": "DNA polymerase theta, ATPase domain (POLQ, Homo sapiens, UniProt O75417)", "test": "enzyme activity, inhibitor", "conditions": "77 µM", "how to read": "relative to: untreated", "measurement": "remaining activity", "result": "104%"}
{"Structure (SMILES)": "O=C(NCc1ncc(C(F)(F)F)cc1Cl)c1ccc2c(c1)C1(CCS(=O)(=O)CC1)[C@@H](C1CC1)N2S(=O)(=O)c1ccc(F)cc1", "target": "Cyclin-G-associated kinase (GAK, Homo sapiens, UniProt O14976)", "test": "cell-free assay, competition with immobilised ligand", "conditions": "1 µM", "measurement": "remaining binding", "result": "96%"}
{"Structure (SMILES)": "CNC(=O)c1cc(C(=O)NC2CC2)cn(Cc2ccccc2)c1=O", "target": "Beta-3 adrenergic receptor (ADRB3, Homo sapiens, UniProt P13945)", "test": "binding, radioligand binding", "conditions": "10 µM", "measurement": "inhibition", "result": "18.6%"}
{"Structure (SMILES)": "Cc1c(C(=O)O)cc(-c2ccc(C3CCNCC3)cc2)c2ccc(-c3ccc(C(F)(F)F)cc3)cc12", "target": "Calcium-dependent protein kinase 1 (CDPK1, Plasmodium falciparum, UniProt P62344)", "test": "cell-free assay, competition with immobilised ligand", "conditions": "1 µM", "measurement": "remaining binding", "result": "100%"}
{"note": "For quick reference, copied from above (study 2):"}
{"target": "Mitogen-activated protein kinase kinase kinase 7 (MAP3K7, Homo sapiens, UniProt O43318)", "remaining activity": "100%"}
{"target": "High affinity nerve growth factor receptor (NTRK1, Homo sapiens, UniProt P04629)", "remaining activity": "89.8%"}
{"target": "Testis-specific serine/threonine-protein kinase 1 (TSSK1B, Homo sapiens, UniProt Q9BXA7)", "remaining activity": "97.3%"}
